Results pooled from the literature.
Protocols differ between the studies behind these lines. ± marks the error that the study gave.
folP: Dihydropteroate synthase (folP, Bacteria, UniProt P0AC13)
Sequence of UniProt P0AC13 (whole entry, looked up): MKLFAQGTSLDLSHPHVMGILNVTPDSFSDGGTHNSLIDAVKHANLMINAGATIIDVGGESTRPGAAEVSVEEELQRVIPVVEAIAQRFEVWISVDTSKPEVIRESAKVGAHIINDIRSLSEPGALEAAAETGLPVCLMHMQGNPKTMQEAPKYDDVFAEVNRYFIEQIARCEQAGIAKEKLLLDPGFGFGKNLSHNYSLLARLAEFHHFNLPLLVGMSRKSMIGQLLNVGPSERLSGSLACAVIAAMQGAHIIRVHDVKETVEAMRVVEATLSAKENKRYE
Induced myeloid leukemia cell differentiation protein Mcl-1 homolog residues 152-308: Induced myeloid leukemia cell differentiation protein Mcl-1 homolog, residues 152-308 (Mus musculus, UniProt P97287)
Sequence of UniProt P97287 (152-308, looked up): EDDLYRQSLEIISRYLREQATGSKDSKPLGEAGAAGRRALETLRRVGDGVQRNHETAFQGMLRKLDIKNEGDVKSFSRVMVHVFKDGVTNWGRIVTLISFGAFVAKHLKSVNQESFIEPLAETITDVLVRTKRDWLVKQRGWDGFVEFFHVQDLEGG
T1: RNA aptamer; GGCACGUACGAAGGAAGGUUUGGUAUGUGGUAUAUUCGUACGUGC
T2: RNA aptamer; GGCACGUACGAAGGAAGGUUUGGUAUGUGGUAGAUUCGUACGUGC
Sequence of UniProt Q13148 (whole entry, looked up): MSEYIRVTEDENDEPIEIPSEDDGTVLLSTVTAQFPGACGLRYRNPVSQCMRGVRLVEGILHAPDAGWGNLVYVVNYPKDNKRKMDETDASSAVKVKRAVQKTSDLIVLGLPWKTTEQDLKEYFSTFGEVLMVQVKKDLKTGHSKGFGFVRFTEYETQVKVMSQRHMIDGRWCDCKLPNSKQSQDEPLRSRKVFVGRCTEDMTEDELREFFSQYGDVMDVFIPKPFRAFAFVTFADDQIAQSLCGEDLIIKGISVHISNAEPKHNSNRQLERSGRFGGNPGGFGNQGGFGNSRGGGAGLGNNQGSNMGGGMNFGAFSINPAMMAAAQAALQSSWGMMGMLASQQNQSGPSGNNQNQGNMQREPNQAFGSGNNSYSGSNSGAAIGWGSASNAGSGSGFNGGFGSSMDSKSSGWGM
Sequence of UniProt Q13526 (whole entry, looked up): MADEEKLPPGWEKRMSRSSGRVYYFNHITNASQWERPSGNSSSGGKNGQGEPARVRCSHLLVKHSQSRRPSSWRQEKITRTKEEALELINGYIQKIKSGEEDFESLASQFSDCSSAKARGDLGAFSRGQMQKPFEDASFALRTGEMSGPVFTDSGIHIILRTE
Sequence of UniProt P21964 (whole entry, looked up): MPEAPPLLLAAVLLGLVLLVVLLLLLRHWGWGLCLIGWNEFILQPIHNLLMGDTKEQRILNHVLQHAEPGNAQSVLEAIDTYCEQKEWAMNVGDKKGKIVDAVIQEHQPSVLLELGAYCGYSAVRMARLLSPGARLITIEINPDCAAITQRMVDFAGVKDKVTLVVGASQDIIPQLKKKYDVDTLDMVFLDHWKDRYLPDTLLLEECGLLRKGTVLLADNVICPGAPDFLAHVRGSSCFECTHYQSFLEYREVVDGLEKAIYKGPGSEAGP
Sequence of UniProt O94900 (whole entry, looked up): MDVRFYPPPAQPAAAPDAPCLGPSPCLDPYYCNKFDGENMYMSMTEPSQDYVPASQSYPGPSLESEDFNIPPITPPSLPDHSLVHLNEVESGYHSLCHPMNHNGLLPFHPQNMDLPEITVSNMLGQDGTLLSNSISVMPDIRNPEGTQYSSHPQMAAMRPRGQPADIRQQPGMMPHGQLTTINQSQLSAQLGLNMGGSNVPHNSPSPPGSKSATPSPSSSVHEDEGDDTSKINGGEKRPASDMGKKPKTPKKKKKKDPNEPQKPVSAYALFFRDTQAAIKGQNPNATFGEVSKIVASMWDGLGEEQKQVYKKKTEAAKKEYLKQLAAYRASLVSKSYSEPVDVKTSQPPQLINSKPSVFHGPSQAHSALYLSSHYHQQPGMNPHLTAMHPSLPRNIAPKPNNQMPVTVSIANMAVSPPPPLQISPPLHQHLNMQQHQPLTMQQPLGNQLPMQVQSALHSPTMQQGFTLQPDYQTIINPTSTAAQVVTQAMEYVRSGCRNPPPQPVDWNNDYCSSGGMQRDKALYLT
Sequence of UniProt Q9NQY0 (whole entry, looked up): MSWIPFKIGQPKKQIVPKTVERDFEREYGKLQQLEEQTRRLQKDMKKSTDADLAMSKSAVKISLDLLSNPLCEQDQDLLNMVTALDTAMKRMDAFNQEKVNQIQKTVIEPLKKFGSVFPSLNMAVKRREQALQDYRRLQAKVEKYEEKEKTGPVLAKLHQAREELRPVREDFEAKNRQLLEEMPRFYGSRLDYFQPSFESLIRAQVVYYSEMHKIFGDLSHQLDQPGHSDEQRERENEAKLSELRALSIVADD
Sequence of UniProt P35222 (141-305, unmodified, looked up): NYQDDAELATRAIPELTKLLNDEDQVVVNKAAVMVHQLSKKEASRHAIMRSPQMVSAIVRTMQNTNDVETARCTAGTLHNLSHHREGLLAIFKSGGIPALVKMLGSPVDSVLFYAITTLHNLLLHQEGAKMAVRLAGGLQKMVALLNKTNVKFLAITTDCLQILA
Sequence of UniProt P43220 (whole entry, looked up): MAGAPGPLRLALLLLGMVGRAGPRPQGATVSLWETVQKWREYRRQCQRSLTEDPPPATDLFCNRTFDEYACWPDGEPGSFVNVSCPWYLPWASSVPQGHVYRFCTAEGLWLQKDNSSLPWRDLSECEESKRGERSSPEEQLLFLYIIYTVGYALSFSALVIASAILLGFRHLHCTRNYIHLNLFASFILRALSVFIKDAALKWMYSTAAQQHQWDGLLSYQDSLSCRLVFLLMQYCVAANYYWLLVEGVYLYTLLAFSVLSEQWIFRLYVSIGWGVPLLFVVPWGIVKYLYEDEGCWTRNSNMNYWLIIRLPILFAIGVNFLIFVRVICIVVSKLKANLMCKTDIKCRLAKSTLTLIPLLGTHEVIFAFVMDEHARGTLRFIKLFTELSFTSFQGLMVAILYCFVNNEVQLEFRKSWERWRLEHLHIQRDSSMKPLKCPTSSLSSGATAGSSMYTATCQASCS
Sequence of UniProt Q9HB29 (whole entry, looked up): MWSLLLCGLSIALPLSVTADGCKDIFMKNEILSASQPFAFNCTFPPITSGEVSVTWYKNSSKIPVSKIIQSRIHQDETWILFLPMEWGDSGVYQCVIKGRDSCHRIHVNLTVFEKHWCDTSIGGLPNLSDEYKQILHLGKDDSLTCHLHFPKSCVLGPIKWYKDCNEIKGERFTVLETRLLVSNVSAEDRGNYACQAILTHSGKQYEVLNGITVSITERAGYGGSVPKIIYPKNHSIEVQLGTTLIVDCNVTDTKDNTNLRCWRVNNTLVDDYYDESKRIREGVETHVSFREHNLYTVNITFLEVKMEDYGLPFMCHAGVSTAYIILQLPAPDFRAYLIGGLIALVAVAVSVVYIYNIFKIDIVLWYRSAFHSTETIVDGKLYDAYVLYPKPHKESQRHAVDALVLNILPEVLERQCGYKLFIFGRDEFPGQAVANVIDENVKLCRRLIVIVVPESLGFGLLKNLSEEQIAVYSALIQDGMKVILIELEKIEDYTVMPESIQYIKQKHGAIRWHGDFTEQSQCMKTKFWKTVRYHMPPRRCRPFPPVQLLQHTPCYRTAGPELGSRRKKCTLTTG
Sequence of UniProt P18031 (whole entry, looked up): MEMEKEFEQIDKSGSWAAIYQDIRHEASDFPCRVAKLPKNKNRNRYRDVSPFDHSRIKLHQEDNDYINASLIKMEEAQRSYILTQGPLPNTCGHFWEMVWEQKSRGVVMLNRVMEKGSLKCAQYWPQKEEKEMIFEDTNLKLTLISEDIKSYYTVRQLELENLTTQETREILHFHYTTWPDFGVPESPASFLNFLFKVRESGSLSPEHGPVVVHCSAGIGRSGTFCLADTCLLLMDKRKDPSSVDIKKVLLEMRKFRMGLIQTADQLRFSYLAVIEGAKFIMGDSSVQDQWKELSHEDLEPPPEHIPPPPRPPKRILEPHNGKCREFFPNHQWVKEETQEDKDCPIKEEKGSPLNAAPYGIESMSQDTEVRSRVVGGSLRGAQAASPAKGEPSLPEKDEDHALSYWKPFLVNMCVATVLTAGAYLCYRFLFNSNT
Sequence of UniProt Q9QXD6 (whole entry, looked up): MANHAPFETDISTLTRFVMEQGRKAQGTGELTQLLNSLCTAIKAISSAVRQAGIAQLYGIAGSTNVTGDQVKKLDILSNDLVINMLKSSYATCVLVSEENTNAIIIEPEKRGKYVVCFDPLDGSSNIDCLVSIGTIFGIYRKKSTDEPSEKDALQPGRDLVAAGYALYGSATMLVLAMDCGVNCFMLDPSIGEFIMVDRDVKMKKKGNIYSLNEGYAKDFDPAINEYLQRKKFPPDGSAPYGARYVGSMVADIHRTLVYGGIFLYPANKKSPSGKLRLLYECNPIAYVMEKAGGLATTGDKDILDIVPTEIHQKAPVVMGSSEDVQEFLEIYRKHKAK
Sequence of UniProt P0A988 (whole entry, looked up): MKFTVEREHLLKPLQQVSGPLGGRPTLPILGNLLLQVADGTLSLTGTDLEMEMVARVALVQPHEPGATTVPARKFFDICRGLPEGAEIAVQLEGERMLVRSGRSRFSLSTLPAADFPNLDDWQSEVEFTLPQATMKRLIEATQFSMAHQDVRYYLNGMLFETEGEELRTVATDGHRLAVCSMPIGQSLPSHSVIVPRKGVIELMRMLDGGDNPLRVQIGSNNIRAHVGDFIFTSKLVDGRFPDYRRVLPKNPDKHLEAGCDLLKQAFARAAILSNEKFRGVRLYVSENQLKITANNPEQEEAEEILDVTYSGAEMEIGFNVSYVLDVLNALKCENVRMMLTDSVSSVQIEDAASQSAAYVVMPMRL
Sequence of UniProt P30048 (whole entry, unmodified, looked up): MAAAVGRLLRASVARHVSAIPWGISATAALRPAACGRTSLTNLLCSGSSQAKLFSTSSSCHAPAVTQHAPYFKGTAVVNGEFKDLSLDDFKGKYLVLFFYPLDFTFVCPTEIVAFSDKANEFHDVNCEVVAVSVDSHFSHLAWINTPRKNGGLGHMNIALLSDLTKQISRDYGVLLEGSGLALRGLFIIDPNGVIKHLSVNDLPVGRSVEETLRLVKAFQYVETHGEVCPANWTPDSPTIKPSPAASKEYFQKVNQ

Compound	target	assay	test system	conditions	scale	measurement	value
CCCCCCCCCCCCC/C=C/C=O	Bridging integrator 3 (BIN3, Homo sapiens, UniProt Q9NQY0)	competitive isoTOP-ABPP, refers to: BIN3 cysteine peptide	Ramos soluble proteome	100 µM, added: iodoacetamide probe	relative to: DMSO over compound-treated, higher = stronger cysteine blockade	isoTOP-ABPP competition ratio	1.2
NC(=O)c1ncn(C2OC(COP(=O)(O)O)C(O)C2O)c1N (stereo not drawn)	Fructose-1,6-bisphosphatase 1 (Mus musculus, UniProt Q9QXD6)	–	–	untagged wild type	–	Hill coefficient	1.56 ± 0.1
COc1ccc(-c2ccc3c(c2)C(=Cc2sc4ccccc4[n+]2C)C=CN3C)cc1	T1, RNA aptamer	fluorescence titration	–	–	–	Kd	4.89 nM
O=c1cc(-c2ccccc2)oc2cc(O[C@@H]3O[C@H](CO)[C@@H](O)[C@H](O)[C@H]3O)c(O)c(O)c12	COMT (Homo sapiens, UniProt P21964)	UV	–	–	relative to: native over denatured target	binding index	1.72
COc1cccc2c(N3CCC(CCP(=O)(O)O)CC3)ncnc12	ENPP1 (Homo sapiens, UniProt P22413)	binding, SPR	–	–	–	koff	0.00197 s⁻¹
COc1ccccc1-c1ccncc1C(=O)Nc1nnc(OCc2ccc(Cl)cc2)s1	RECQL5 (Homo sapiens, UniProt O94762)	ATPase activity, ADP-Glo	–	0.95 µM, 1 h	–	remaining activity	108%
CC[C@H](C)[C@H](NC(=O)[C@H](CC(=O)O)NC(=O)[C@H](CCCNC(=N)N)NC(=O)[C@H](CC(C)C)NC(=O)[C@@H](NC(=O)[C@H](CCC(N)=O)NC(=O)[C@H](CC(C)C)NC(=O)[C@H](CO)NC(=O)[C@H](CCCNC(=N)N)NC(=O)[C@H](CCC(=O)O)NC(=O)[C@H](CCCNC(=N)N)NC(=O)[C@H](Cc1c[nH]cn1)NC(=O)[C@H](CCC(=O)O)NC(=O)[C@H](CC(C)C)NC(=O)[C@H](CCC(N)=O)NC(=O)[C@H](CCC(=O)O)NC(=O)[C@H](CCC(N)=O)NC(=O)[C@H](CO)NC(=O)[C@@H](N)CC(C)C)[C@@H](C)O)C(=O)N[C@@H](CCC(N)=O)C(=O)N[C@@H](CCCNC(=N)N)C(=O)N[C@@H](CCSC)C(=O)O	Catenin beta-1, residues 141-305 (CTNNB1, Homo sapiens, UniProt P35222)	ITC	–	25 °C	–	ΔH	-4.2 kcal/mol
O=C1c2sc(-c3ccc(N4CCC(F)C4)nc3F)nc2CCN1c1cccnc1 (stereo not drawn)	TAR DNA-binding protein 43, aggregated (TARDBP, Homo sapiens, UniProt Q13148)	saturation autoradiography	human, FTLD-TDP type A brain sections	0.097 nM	–	specific binding	3.49 nM
NCc1cc2c(cc1F)C(=O)N(C1CCC(=O)NC1=O)C2 (stereo not drawn)	Cereblon/Casein kinase I alpha (CSNK1A1/CRBN, Homo sapiens, UniProt P48729+Q96SW2)	protein degradation, degrader, Western blot	Hep3B	1 µM, 6 h	–	Dmax	46%
Cn1nc(CO)c(=O)c2c(=O)[nH]c(N)nc21	folP	CETSA HiBiT	Escherichia coli, cell lysate	concentration not given	relative to: DMSO	melting temperature shift	15.9 °C
CCC1(C)C(=O)N(c2cccc(CN3CCN(Cc4ccc(Br)cc4)CC3)c2)C1=O	DPP9 (Homo sapiens, UniProt Q86TI2)	enzyme activity, inhibitor	–	5 µM	–	activity vs control	70%
C/C=C/C(=O)Nc1ccc2nc(NCCCCCN(C)C)nc(NCCCCCCN(C)C)c2c1	EHMT2 (Homo sapiens, UniProt Q96KQ7)	enzyme activity, inhibitor, radiometric	–	10 µM	–	inhibition	25%
CCCCCC=CC=C1C(=O)C=CC1CC=CCCCC(=O)O (stereo not drawn)	MMS19 (Homo sapiens, UniProt Q96T76)	competitive isoTOP-ABPP	Ramos soluble proteome	100 µM, 60 min, added: iodoacetamide probe	relative to: DMSO over compound-treated, higher = stronger cysteine blockade	isoTOP-ABPP competition ratio	5.7
Cn1nc(COC(=O)c2ccccc2)c(=O)c2c(=O)[nH]c(N)nc21	folP	CETSA HiBiT	Escherichia coli, whole cells	concentration not given	relative to: DMSO	melting temperature shift	6.26 °C
C=C(NC(=O)c1csc(-c2cccnc2)n1)C(=O)NC(=C)C(=O)OC	PRDX3 (Homo sapiens, UniProt P30048, A142E/C108S/S139E)	MALDI-TOF, refers to: CR adduct	PRDX3 C108S	200 µM, 37 °C	–	adduct formation rate	0.0094 ± 0.0004 min⁻¹
CCCCCCCCCCCCCCCC(=O)OCC(CSC[C@H](N)C(=O)N[C@@H](CO)C(=O)N[C@@H](CCCCN)C(=O)N[C@@H](CCCCN)C(=O)N[C@@H](CCCCN)C(=O)N[C@@H](CCCCN)C(=O)NCCCCCC(=O)N[C@@H](CCCCN)C(=O)N[C@@H](CC(C)C)C(=O)N[C@H](C(=O)N[C@@H](Cc1ccccc1)C(=O)N[C@@H](Cc1ccccc1)C(=O)N[C@@H](Cc1ccc2ccccc2c1)C(=O)O)C(C)C)OC(=O)CCCCCCCCCCCCCCC (stereo partly drawn)	Amyloid-beta precursor protein, fibrillar amyloid-beta (APP, Homo sapiens, UniProt P05067)	TEM	–	2.0 eq, 8 h, fibril 4, added: APP 20 µM	–	fibril diameter	40.4 nm
Cc1ccc2c(c1)N(C)C=CC2=Cc1sc2ccccc2[n+]1CC(=O)NCCOCCOCCOCCNC(=O)CCCC[C@@H]1SC[C@@H]2NC(=O)N[C@@H]21	T2, RNA aptamer	fluorescence titration	–	–	–	Kd	13.5 nM
COc1cc(C2C(NC(=O)c3ccc(NC(=O)OC(C)(C)C)cc3)(C(=O)O)C(c3ccc(OC(=O)c4cccs4)c(OC)c3)C2(NC(=O)c2ccc(NC(=O)OC(C)(C)C)cc2)C(=O)O)ccc1OC(=O)c1cccs1 (stereo not drawn)	GLP1R (Homo sapiens, UniProt P43220)	cAMP accumulation, agonist	–	–	relative to: wild-type receptor response	Emax	99.3 ± 2.63%

Compound	target	assay	test system	conditions	scale	measurement	value
N#Cc1c(N)nc2c(c1-c1ccc(CO)o1)Cc1cc(O)ccc1-2	Thymocyte selection-associated high mobility group box protein TOX (Homo sapiens, UniProt O94900)	IP-MS, refers to: histone H2A	MOLT-4	10 µM	relative to: DMSO	fold change	-0.996
CC[C@H](C)[C@H](NC(=O)[C@H](Cc1c[nH]cn1)NC(C)=O)C(=O)N[C@@H](CCCCN)C(=O)N[C@H](C(=O)N[C@@H](Cc1c[nH]cn1)C(=O)N[C@@H](CC(C)C)C(=O)N[C@@H](CC(=O)O)C(=O)N[C@@H](CCC(=O)O)C(=O)N[C@@H](CCC(=O)O)C(=O)N[C@H](C(=O)NCC(=O)N[C@@H](CCC(=O)O)C(=O)N[C@@H](CCCCN)C(=O)N[C@H](C(=O)N[C@@H](CO)C(=O)N[C@H](C(=O)N[C@H](C(=O)N[C@@H](CC(C)C)C(=O)N[C@@H](CC(=O)O)C(=O)N[C@H](C(N)=O)C(C)C)[C@@H](C)O)[C@@H](C)CC)[C@@H](C)O)[C@@H](C)O)[C@@H](C)O	Kelch-like ECH-associated protein 1, Kelch domain (KEAP1, Homo sapiens, UniProt Q14145)	binding, ITC	–	pH 7, 298.15 K	–	TΔS	-9.87 kcal/mol
Cn1c(=O)n(C2CCC(=O)NC2=O)c2ccc(C3CCN(CC(=O)Nc4cccc(CS(=O)(=O)N5CC[C@H](Nc6cccc(-c7sc(C(=O)O)c(OCC(=O)O)c7Cl)c6)CC5(C)C)c4)CC3)cc21 (stereo partly drawn)	PTPN1 (Homo sapiens, UniProt P18031)	degrader, bio-layer interferometry	–	250 nM, biotinylated protein immobilised	higher = more binding	BLI binding response	0.238 a.u.
C[C@@H](Nc1nc(N[C@H](C)C(F)(F)F)nc(-c2cccc(Cl)n2)n1)C(F)(F)F	Isocitrate dehydrogenase [NADP], mitochondrial, heterodimer with wild-type (IDH2, Homo sapiens, UniProt P48735, R140Q)	reverse reaction	–	16 h preincubation, mutant	–	maximum inhibition	105 ± 2.8%
Nc1nc2[nH]nc(CCC(=O)O)c(=O)c2c(=O)[nH]1	folP	CETSA HiBiT	Escherichia coli, whole cells	concentration not given	relative to: whole cell over lysate ΔTm	target engagement efficiency	13.7%
CC(=O)N[C@H]1C(n2cc(-c3ccc(F)cc3F)nn2)O[C@H](COCc2ccccc2)[C@H](OCc2ccccc2)[C@@H]1OCc1ccccc1 (stereo partly drawn)	Protein Mdm4 (MDM4, Homo sapiens, UniProt O15151)	thermal stability, DSF	–	30 µM	–	ΔTm	2.25 °C
CC(=O)N[C@@H](CCC(N)=O)C(=O)N[C@@H](CC1CCCCC1)C(=O)N[C@@H](CNC(=O)CCl)C(=O)N[C@@H](CC(C)C)C(=O)N[C@@H](Cc1ccccc1)C(=O)O	Beta sliding clamp (Escherichia coli, UniProt P0A988)	covalent adduct formation, mass spectrometry	–	covalent step	–	activation energy	16.6 ± 3.3 kcal/mol
CC(C(=O)O)c1nn(C)c2nc(N)[nH]c(=O)c2c1=O (stereo not drawn)	folP	CETSA HiBiT	Escherichia coli, whole cells	concentration not given	relative to: DMSO	melting temperature shift	8.36 °C
CC(C)[C@@H]1NC(=O)[C@H](Cc2ccccc2)NC(=O)CSC[C@@H](C(N)=O)NC(=O)[C@H](CCC(=O)O)NC(=O)[C@H](CO)NC(=O)[C@H](Cc2c[nH]c3cccc(Cl)c23)NC(=O)[C@H](C2CCCCC2)NC(=O)[C@H](C(C)C)NC(=O)[C@H](Cc2ccc(O)cc2)NC(=O)[C@H](CC(=O)O)NC(=O)[C@H](Cc2c[nH]c3ccccc23)NC(=O)[C@H](Cc2ccc(N)nc2)NC(=O)[C@H](Cc2c[nH]c3ccc(Cl)cc23)NC(=O)[C@H](CCC(=O)O)NC1=O	Interleukin-1 receptor-like 2 (IL1RL2, Homo sapiens, UniProt Q9HB29)	reporter gene (SEAP), inhibitor, HEK-Blue IL-36R reporter	HEK-Blue IL-36R cells	0.046 µM, 6 h, added: IL-36β 30 ng/mL	–	remaining activity	84.7%
CN(Cc1ccc(/C=C/C(=O)NO)cc1)CC12CC3CC(CC(C3)C1)C2	human 5-HT2A receptor	antagonist radioligand binding	–	0.05 µM	–	inhibition	-2%
CN(CCCN1CCN(C(=O)CN2CCN(CC(=O)[O-])CCN(CC(=O)[O-])CCN(CC(=O)[O-])CC2)CC1)c1ccc2nccc(C(=O)NCC(=O)N3CC(F)(F)C[C@H]3C#N)c2c1.[Lu+3]	Albumin (ALB, Homo sapiens, UniProt P02768)	fluorescence quenching	–	–	–	quenching rate constant kq	1.32e+12 M⁻¹ s⁻¹
O=C(NO)c1ccc(Cn2c3c(c4cc(Br)ccc42)SC(c2ccccc2)C3)s1 (racemic)	Histone deacetylase 8 (Schistosoma mansoni, UniProt A5H660)	X-ray crystallography	–	ligand-Lys20 side chain, chain B, C3-CD	–	interatomic distance	3.91 Å
CCn1cc(-c2cccc(C(F)(F)F)c2)c2sc(C(=N)NC3CCS(=O)(=O)CC3)cc2c1=O	TAF1 (Homo sapiens, UniProt P21675)	–	–	–	–	ΔTm	-0.3 °C
O=C(CCl)N[C@@H](Cc1cccc(O)c1)C(=O)N1CCCC[C@H]1C(=O)NCCc1c[nH]c2cc(Cl)cc(Cl)c12	PIN1 (Homo sapiens, UniProt Q13526)	protein denaturation, thermal shift	–	–	–	first transition share	10%
CC(CC(=O)O)c1n[nH]c2nc(N)[nH]c(=O)c2c1=O (stereo not drawn)	folP	CETSA HiBiT	Escherichia coli, whole cells	concentration not given	relative to: whole cell over lysate ΔTm	target engagement efficiency	5.2%
CC(=O)N[C@@H](CCC(=O)O)C(=O)N[C@@H](CCC(=O)O)C(=O)N[C@@H](CCC(=O)O)C(=O)N[C@@H](Cc1c[nH]c2ccccc12)C(=O)N[C@@H](C)C(=O)N[C@@H](CCCNC(=N)N)C(=O)N[C@@H](CCC(=O)O)C(=O)N[C@@H](CC(C)(C)C)C(=O)NCC(=O)N[C@@H](C)C(=O)N[C@@H](CCC(N)=O)C(=O)N[C@@H](CC(C)C)C(=O)N[C@@H](CCCNC(=N)N)C(=O)N[C@@H](CCCNC(=N)N)C(=O)N[C@@H](C)C(=O)N[C@@H](C)C(=O)N[C@@H](CC(=O)O)C(=O)N[C@@H](CC(=O)O)C(=O)N[C@@H](CC(C)C)C(=O)N[C@@H](CC(N)=O)C(=O)N[C@@H](C)C(=O)N[C@@H](CCC(N)=O)C(=O)N[C@@H](Cc1ccc(O)cc1)C(=O)N[C@@H](CCC(=O)O)C(=O)N[C@@H](CCCNC(=N)N)C(=O)N[C@@H](CCCNC(=N)N)C(=O)N[C@@H](CCCNC(=N)N)C(N)=O	Induced myeloid leukemia cell differentiation protein Mcl-1 homolog residues 152-308	binding, SPR	–	0.2% DMSO	–	koff	0.0163 s⁻¹
Cn1nnnc1NCc1nn(C)c2nc(N)[nH]c(=O)c2c1=O	folP	CETSA HiBiT	whole cells	–	–	melting temperature	63.9 °C
CC[C@H](C)[C@H](NC(=O)[C@H](CCC(=O)O)NC(=O)[C@H](CCCNC(=N)N)NC(=O)[C@H](C)NC(=O)[C@H](Cc1c[nH]c2ccccc12)NC(=O)[C@H](CCC(=O)O)NC(=O)[C@H](CCC(=O)O)NC(=O)[C@H](CCC(=O)O)NC(C)=O)C(=O)NCC(=O)N[C@@H](CC(C)(C)C)C(=O)N[C@@H](CCC(N)=O)C(=O)N[C@@H](CC(C)C)C(=O)N[C@@H](CCCNC(=N)N)C(=O)N[C@@H](CCCNC(=N)N)C(=O)N[C@@H](C)C(=O)N[C@@H](C)C(=O)N[C@@H](CC(=O)O)C(=O)N[C@@H](CC(=O)O)C(=O)N[C@@H](CC(C)C)C(=O)N[C@@H](CC(N)=O)C(=O)N[C@@H](C)C(=O)N[C@@H](CCC(N)=O)C(=O)N[C@@H](Cc1ccc(O)cc1)C(=O)N[C@@H](CCC(=O)O)C(=O)N[C@@H](CCCNC(=N)N)C(=O)N[C@@H](CCCNC(=N)N)C(=O)N[C@@H](CCCNC(=N)N)C(N)=O	Induced myeloid leukemia cell differentiation protein Mcl-1 homolog residues 152-308	binding, SPR	–	0.2% DMSO	–	koff	0.00031 s⁻¹
